Measured values collected from several papers.
Protocols differ between the studies behind these lines.
TMEM97: Sigma intracellular receptor 2 (TMEM97, Homo sapiens, UniProt Q5BJF2)
Sequence of UniProt Q5BJF2 (whole entry, looked up): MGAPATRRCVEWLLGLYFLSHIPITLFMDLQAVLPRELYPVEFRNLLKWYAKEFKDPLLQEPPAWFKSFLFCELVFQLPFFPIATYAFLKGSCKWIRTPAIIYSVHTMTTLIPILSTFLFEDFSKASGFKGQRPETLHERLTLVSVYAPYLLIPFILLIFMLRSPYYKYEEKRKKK
CA2: Carbonic anhydrase 2 (CA2, Homo sapiens, UniProt P00918)
PFF0160c: Dihydroorotate dehydrogenase (quinone), mitochondrial (PFF0160c, Plasmodium falciparum, UniProt Q08210)
Sequence of UniProt Q08210 (whole entry, looked up): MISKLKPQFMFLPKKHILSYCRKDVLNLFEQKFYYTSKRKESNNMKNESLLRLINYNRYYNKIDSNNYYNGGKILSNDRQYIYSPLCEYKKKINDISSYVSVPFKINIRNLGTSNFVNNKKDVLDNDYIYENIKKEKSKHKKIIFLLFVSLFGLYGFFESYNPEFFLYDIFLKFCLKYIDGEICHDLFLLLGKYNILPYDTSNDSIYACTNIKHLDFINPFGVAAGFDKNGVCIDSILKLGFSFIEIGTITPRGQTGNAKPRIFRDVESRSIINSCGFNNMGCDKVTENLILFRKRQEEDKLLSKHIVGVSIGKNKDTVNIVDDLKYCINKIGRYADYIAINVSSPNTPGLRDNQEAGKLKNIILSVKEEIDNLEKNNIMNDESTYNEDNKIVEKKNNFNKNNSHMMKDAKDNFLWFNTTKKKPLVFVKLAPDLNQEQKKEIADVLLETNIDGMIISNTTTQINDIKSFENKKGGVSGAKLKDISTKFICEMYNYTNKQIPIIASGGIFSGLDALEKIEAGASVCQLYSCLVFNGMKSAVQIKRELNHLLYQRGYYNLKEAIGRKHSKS
Sequence of UniProt P12822 (whole entry, looked up): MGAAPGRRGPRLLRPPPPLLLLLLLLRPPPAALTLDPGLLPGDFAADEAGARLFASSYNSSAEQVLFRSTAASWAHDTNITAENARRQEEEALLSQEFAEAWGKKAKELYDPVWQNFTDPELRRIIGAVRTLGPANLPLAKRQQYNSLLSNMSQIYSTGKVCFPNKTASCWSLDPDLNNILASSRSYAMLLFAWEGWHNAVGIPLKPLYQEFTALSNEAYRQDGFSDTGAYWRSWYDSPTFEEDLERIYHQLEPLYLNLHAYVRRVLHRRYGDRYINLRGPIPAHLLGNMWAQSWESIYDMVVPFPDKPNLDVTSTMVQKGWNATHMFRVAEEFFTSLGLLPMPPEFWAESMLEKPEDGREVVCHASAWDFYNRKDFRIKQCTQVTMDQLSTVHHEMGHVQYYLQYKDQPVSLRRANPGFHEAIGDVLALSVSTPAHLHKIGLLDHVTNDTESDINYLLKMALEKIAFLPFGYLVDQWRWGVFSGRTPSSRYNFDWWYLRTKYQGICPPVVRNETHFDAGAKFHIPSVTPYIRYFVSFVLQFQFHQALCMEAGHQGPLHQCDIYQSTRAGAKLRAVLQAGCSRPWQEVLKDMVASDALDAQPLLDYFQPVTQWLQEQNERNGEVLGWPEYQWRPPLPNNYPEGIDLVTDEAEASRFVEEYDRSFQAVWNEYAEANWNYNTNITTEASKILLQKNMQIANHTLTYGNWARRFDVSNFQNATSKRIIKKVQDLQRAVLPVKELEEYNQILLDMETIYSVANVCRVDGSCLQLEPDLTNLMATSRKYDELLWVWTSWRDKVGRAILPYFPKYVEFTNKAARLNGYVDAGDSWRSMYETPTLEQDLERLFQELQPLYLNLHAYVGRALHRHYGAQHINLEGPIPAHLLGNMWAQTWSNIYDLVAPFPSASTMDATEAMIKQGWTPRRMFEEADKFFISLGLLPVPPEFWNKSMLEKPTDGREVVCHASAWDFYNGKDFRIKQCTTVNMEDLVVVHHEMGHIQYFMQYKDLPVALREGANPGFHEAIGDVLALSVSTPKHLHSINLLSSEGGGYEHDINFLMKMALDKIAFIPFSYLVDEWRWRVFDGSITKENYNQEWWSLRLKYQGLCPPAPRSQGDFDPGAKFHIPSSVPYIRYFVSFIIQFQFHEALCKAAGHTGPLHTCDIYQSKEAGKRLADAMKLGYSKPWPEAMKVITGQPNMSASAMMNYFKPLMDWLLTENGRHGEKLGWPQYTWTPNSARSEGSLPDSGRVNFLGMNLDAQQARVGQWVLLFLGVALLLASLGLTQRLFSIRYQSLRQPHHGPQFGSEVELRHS
Sequence of UniProt Q7L7X3 (whole entry, looked up): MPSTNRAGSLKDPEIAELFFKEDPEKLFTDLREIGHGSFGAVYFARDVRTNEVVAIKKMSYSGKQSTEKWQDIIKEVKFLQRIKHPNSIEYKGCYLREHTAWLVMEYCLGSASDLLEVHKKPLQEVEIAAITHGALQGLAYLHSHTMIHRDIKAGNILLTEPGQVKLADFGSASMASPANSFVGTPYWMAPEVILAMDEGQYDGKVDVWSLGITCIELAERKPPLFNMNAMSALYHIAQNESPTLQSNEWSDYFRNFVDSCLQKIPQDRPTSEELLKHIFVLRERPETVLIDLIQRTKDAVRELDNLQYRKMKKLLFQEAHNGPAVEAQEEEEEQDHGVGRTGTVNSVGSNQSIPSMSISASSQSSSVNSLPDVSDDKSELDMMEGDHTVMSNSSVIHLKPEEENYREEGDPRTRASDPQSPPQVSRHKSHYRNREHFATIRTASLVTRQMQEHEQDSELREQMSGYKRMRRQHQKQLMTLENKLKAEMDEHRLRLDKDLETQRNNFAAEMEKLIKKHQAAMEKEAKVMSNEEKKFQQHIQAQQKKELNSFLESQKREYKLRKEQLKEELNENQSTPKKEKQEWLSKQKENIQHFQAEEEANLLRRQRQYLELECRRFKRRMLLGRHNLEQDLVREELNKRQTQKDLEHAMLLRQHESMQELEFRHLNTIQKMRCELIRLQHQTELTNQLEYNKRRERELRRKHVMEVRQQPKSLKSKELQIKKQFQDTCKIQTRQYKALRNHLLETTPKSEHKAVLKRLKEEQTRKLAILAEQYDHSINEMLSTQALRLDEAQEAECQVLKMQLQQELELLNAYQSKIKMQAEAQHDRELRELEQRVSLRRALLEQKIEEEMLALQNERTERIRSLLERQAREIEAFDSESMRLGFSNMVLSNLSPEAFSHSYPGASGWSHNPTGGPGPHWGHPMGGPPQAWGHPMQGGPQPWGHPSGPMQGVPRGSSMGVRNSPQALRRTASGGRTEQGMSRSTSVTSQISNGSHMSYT
Sequence of UniProt P09958 (whole entry, looked up): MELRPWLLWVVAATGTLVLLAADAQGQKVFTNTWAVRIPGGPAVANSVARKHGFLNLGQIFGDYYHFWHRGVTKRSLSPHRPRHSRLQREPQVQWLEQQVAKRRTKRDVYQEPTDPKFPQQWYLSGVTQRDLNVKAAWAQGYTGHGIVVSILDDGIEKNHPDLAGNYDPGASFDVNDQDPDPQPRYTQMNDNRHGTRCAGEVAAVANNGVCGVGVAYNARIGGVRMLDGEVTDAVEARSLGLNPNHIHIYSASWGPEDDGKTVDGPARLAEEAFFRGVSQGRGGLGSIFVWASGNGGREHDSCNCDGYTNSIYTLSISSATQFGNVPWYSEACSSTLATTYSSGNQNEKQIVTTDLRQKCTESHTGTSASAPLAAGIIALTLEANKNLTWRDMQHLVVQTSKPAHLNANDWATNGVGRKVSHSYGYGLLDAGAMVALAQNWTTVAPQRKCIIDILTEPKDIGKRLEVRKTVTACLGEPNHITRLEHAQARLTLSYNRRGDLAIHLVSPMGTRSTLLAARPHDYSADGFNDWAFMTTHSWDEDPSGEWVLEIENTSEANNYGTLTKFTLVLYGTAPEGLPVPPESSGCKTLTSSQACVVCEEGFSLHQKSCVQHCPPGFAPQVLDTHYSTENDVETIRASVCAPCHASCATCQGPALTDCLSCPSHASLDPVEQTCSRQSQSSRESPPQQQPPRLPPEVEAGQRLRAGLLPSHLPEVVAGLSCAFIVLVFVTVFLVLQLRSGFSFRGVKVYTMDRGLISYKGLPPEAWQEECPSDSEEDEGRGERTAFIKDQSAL
Sequence of UniProt P28335 (whole entry, looked up): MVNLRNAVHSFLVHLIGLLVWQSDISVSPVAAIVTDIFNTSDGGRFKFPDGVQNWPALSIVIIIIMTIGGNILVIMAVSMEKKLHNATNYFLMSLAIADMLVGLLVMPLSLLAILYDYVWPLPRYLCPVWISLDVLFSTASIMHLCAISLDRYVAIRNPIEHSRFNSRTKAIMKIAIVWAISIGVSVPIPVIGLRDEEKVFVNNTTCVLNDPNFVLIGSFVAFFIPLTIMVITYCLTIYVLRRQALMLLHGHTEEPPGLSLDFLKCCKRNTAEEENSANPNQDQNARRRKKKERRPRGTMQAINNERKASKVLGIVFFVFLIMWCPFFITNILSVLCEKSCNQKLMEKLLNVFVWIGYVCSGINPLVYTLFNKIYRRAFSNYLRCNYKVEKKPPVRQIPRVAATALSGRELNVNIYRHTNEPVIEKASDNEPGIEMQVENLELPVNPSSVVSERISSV
Sequence of UniProt O43570 (whole entry, looked up): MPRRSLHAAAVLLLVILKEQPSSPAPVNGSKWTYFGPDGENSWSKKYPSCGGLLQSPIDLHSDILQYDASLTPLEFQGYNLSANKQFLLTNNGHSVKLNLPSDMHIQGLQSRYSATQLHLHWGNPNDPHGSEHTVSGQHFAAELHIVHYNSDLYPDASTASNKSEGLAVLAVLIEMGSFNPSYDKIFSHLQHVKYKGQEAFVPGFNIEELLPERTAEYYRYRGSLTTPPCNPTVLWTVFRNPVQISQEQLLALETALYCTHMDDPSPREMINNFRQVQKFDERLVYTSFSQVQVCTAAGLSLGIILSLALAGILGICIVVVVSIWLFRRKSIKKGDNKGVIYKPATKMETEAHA
Sequence of UniProt P00915 (whole entry, looked up): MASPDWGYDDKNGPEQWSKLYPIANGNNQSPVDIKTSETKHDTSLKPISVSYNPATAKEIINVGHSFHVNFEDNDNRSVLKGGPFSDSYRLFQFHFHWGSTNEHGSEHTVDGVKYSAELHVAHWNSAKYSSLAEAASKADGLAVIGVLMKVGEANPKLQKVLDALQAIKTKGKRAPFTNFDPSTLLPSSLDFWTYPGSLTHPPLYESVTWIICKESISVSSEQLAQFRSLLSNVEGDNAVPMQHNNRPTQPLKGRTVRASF

SMILES | target | assay | setting | measurement | value
[2H]c1c([2H])c([C@]2([2H])CCCN2C(=O)C(C)(C)Oc2ccc3cn[nH]c3c2)c([2H])c([2H])c1C([2H])([2H])[2H] | TAOK1 (Homo sapiens, UniProt Q7L7X3) | binding, competition with immobilised ligand | 1 µM | remaining binding | 98%
CN(C)CCCC1(c2ccc(F)cc2)OCc2cc(C#N)ccc21 (centres unmarked) | TMEM97 | ligand displacement, radioligand |  | Ki | 0.689 µM
CCOC(=O)N[C@@H](CCCNC(=N)N)C(=O)N[C@@H](CCC(N)=O)C(=O)N[C@@H](Cc1ccccc1)C(=O)N[C@@H](CCCNC(=N)N)C(=O)c1nc2ccccc2s1 | Furin (FURIN, Homo sapiens, UniProt P09958) | cell-free assay |  | Ki | > 10 µM
COc1cccc(NC(=O)Nc2ccc3c(c2)C=CCP(=O)(O)O3)c1 | CA2 | enzyme activity, inhibitor, stopped-flow |  | Ki | > 10 µM
N=C(N)NCCC[C@H](NC(=O)[C@H](Cc1ccccc1)NC(=O)[C@H](CCC(N)=O)NC(=O)OCc1ccccc1)C(=O)c1nccs1 | Procathepsin L (CTSL, Homo sapiens, UniProt P07711) | cell-free assay |  | Ki | > 10 µM
COc1ccc(NC(=O)Nc2ccc3c(c2)C=CCP(=O)(O)O3)cc1 | CA2 | enzyme activity, inhibitor, stopped-flow |  | Ki | > 10 µM
CCCNC(=O)c1ccnc(-c2ccc(CNC3Cc4ccccc4C3)cc2)c1 | PFF0160c | enzyme activity, inhibitor, absorbance |  | IC50 | 3.39 µM
COCCC(=O)N[C@@H](CCC(N)=O)C(=O)N[C@@H](Cc1ccccc1)C(=O)N[C@@H](CCCNC(=N)N)C(=O)c1nc2ccccc2s1 | TMPRSS13 (Homo sapiens, UniProt Q9BYE2) | cell-free assay |  | Ki | 0.137 µM
O=C(Nc1ccc2c(c1)C=CCP(=O)(O)O2)c1ccccc1 | CA1 (Homo sapiens, UniProt P00915) | enzyme activity, inhibitor, stopped-flow |  | Ki | > 10 µM
COc1ccccc1Cn1ccnc1SCC(=O)Nc1cccc(C(F)(F)F)c1 | PFF0160c | enzyme activity, inhibitor, absorbance |  | IC50 | 0.763 µM
OCCOCCN1CCN(C(c2ccccc2)c2ccc(Cl)cc2)CC1 (centres unmarked) | TMEM97 | ligand displacement, radioligand |  | Ki | 1.34 µM
COc1cc2c(cc1OC)CN(CCc1ccc(NC(=O)c3cccc4c(=O)c5cccc(OC)c5[nH]c34)cc1)CC2 | HTR6 (Homo sapiens, UniProt P50406) | cell-free assay |  | Ki | > 10 µM
CCOP1(=O)CC=Cc2cc(N)ccc2O1 (centres unmarked) | CA2 | enzyme activity, inhibitor, stopped-flow |  | Ki | > 10 µM
CC(C)C[C@H](N)C(=O)N[C@@H](Cc1c[nH]c2ccccc12)C(=O)N[C@@H](CC(=O)O)C(=O)N1CCC[C@H]1C(=O)N1CCC[C@H]1C(=O)N[C@@H](CCC(=O)O)C(=O)NCC(=O)N[C@@H](C)C(=O)N1CCC[C@H]1C(=O)O | ACE (Oryctolagus cuniculus, UniProt P12822) | enzyme activity, inhibitor |  | Ki | 10700 µM
COc1cc2nc(N3CCCN(C)CC3)nc(NC3CCN(Cc4ccccc4)CC3)c2cc1OC | TMEM97 | ligand displacement, radioligand |  | Ki | > 10 µM
CC1Oc2cc3c(-c4c(O)cc(O)c5c(O)c6c(cc45)OC(C)C(C)C6=O)c(O)cc(O)c3c(O)c2C(=O)C1C (centres unmarked) | Replicase polyprotein 1ab, main protease (Feline coronavirus, UniProt Q98VG9) | enzyme activity, inhibitor, fluorescence |  | Ki | 3.69 µM
CN(C)CCC(c1ccc(Cl)cc1)c1ccccn1 (centres unmarked) | TMEM97 | ligand displacement, radioligand |  | Ki | 3.93 µM
CC(C)(C)[C@H](Nc1nc(Cl)nc2c1ncn2[C@H]1[C@H](O)[C@H](O)[C@]2(CO)C[C@H]12)C1CC1 | HTR2C (Homo sapiens, UniProt P28335) | ligand displacement, radioligand |  | Ki | 1.23 µM
CC(C)NC[C@@H](O)COc1cccc2ccccc12 | TMEM97 | ligand displacement, radioligand |  | Ki | 1.23 µM
O=C(Nc1ccc(F)cc1)Nc1ccc2c(c1)C=CCP(=O)(O)O2 | CA12 (Homo sapiens, UniProt O43570) | enzyme activity, inhibitor, stopped-flow |  | Ki | > 10 µM

For quick reference, copied from above:
SMILES | target | assay | setting | measurement | value
CC(C)C[C@H](N)C(=O)N[C@@H](Cc1c[nH]c2ccccc12)C(=O)N[C@@H](CC(=O)O)C(=O)N1CCC[C@H]1C(=O)N1CCC[C@H]1C(=O)N[C@@H](CCC(=O)O)C(=O)NCC(=O)N[C@@H](C)C(=O)N1CCC[C@H]1C(=O)O | ACE (Oryctolagus cuniculus, UniProt P12822) | enzyme activity, inhibitor |  | Ki | 10700 µM
CN(C)CCCC1(c2ccc(F)cc2)OCc2cc(C#N)ccc21 (centres unmarked) | TMEM97 | ligand displacement, radioligand |  | Ki | 0.689 µM
